Results collected from several papers.
Target: Leukocyte tyrosine kinase receptor (LTK, Homo sapiens, UniProt P29376)

SMILES	assay	conditions	how to read	endpoint	result
O=C(Nc1ccc(Oc2ncnc3[nH]cc(-c4ccccc4)c23)c(F)c1)c1c2n(n(-c3cc(F)ccc3F)c1=O)CCCC2	enzyme activity, inhibitor	0.5 µM		inhibition	-8%
COCC12C(=O)NC3C4(C(OC)CC1O)C1CC5(O)C(OC)C(O)C(OC(C)=O)(C1C5OC(=O)c1ccccc1)C3(O)C(OC)C24 (stereo not shown)	kinase activity, inhibitor, ProQinase kinase profiling	25 µM	baseline: control	remaining activity	91%
Cc1cccc(O[C@H]2CCC[C@@H](C(C)CNCc3ccncc3)C2)c1 (relative stereo)	cell-free assay	10 µM		inhibition	-3%
COc1cc(Nc2nccc(-c3cnn4nc(OC)ccc34)n2)cc(C(F)(F)F)c1	binding, competition with immobilised ligand	1 µM		remaining binding	83%
CCN1CCN(Cc2ccc(C(=O)Nc3ccc(C)c(NCc4cnc5[nH]ccc5c4OC)c3)cc2C(F)(F)F)CC1	binding, competition with immobilised ligand	1 µM		remaining binding	74%
Cc1ccc(-c2c(/C=C(\C#N)C(=O)NC(C)C)n(CCCO)c3ncnc(N)c23)cc1	cell-free assay, competition with immobilised ligand	1 µM		remaining binding	95%
C=CC(=O)Nc1cccc(-c2cnc3[nH]cc(C(=O)NC(C)(C)C)c3n2)c1	enzyme activity, inhibitor	0.1 µM		inhibition	3%
CCn1cc(C(=O)O)c(=O)c2c(N)c(F)c(NC3CCCCC3)cc21	kinase activity	0.1 µM, together with: ATP at Km		inhibition	13.2%
NC(=O)[C@@H](O)C[C@H]1CCc2sc3ncnc(O[C@H]4CC[C@H](N5CCOCC5)CC4)c3c21	enzyme activity, inhibitor	10 µM		inhibition	19%
Nc1ncc2c(n1)-c1c([nH]c3ccc(C4=CCOCC4)cc13)CCC2	binding, competition with immobilised ligand	1 µM		remaining binding	91%
COc1c(Cl)cccc1Nc1c(-c2ccncc2C#C[C@@]2(C)CCCN2C(=O)/C=C/CN(C)C)[nH]c2c1C(=O)NCC2	cell-free assay, competition with immobilised ligand	3 µM		remaining binding	100%
CNC(=O)C[C@H](Cc1ccc(C#N)cc1)NC(=O)c1cc(-c2ccc(CN[C@H](C)c3ccc(C)cc3)o2)ccc1Cl	enzyme activity, inhibitor	1 µM		activity vs control	89%
CNC1C[S+]2CC[S+]3CC[S+](C1)[Ru-4]321([N]=C=S)[n]2c3ccc(OC)cc3c3c4c(c5cc(F)c[n+]1c5c32)C(=O)NC4=O (stereo not shown)	KinomeScan	0.1 µM	baseline: untreated	remaining binding	100%

Excerpt of the above:
SMILES	assay	conditions	how to read	endpoint	result
Cc1cccc(O[C@H]2CCC[C@@H](C(C)CNCc3ccncc3)C2)c1 (relative stereo)	cell-free assay	10 µM		inhibition	-3%
NC(=O)[C@@H](O)C[C@H]1CCc2sc3ncnc(O[C@H]4CC[C@H](N5CCOCC5)CC4)c3c21	enzyme activity, inhibitor	10 µM		inhibition	19%
